Assay results pooled from the literature.
Every numbered part comes from another study and shows a few of its results, in no order. Changes are numbered by the printed parent chain.

Study 1
Target: CCNE1, cyclin fold, Cln2 fusion (human)
Method: yeast growth competition, sequencing
Medium: yeast
Notes: weak parent motif
Relative to: not given
Reading: higher = stronger binding
Measurement: normalised enrichment score
Starting sequence: RB1 docking peptide (human); PKPLKKLRFDIEG
PKTLKKLRFDIEG [P3T]: 0.391
PKPLKKRRFDIEG [L7R]: 0.453
PKPLKKLRFYIEG [D10Y]: 1.18
HKPLKKLRFDIEG [P1H]: 0.68
WKPLKKLRFDIEG [P1W]: 0.86
PKPLKKLRVDIEG [F9V]: 0.515

Study 2
Target: ABI1, truncated, D143A, DHFR fusion (Arabidopsis thaliana)
Method: DHFR PCA, deep sequencing
Medium: yeast
Notes: methotrexate growth selection, single substitutions
Added: (+)-ABA 0.11 µM
Relative to: wild-type fitted maximum
Reading: higher = stronger binding
Measurement: relative binding score
Starting sequence: PYL1, truncated, DHFR fusion (Arabidopsis thaliana); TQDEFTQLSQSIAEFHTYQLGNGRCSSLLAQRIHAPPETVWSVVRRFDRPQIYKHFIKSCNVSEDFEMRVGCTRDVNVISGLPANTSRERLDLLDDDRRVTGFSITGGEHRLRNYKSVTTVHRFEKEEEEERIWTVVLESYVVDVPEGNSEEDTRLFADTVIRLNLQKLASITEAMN
D65W: 3.49%
I12Y: 3.54%
T1K: 31%
F47N: 0.291%

Study 3
Target: Prothrombin, mature alpha-thrombin (F2, Homo sapiens, UniProt P00734)
Method: aptamer microarray, sandwich
Form: DNA with 2'F-ANA
Medium: in vitro
Tested at: 200 nM
Notes: whole 15-mer aptamer, many near background
Added: Cy3 exosite-II aptamer, 400 nM
Reading: higher = stronger binding
Measurement: mean fluorescence intensity
Strand: GGTTGGTGTGGTTGG
2'F-ANA at 1 3 5 7 12 13 14: 45.6 a.u.
2'F-ANA at 2 5 8 12 13 15: 124 a.u.
2'F-ANA at 1 2 3 4 5 7 9 11 13 14 15: 95.8 a.u.
2'F-ANA at 2 3 9 10 14 15: 291 a.u.
2'F-ANA at 4 8 9 10 15: 80.8 a.u.
2'F-ANA at 2 3 4 5 10 12 13 15: 51.8 a.u.
2'F-ANA at 4 6 8 9 11 12 15: 362 a.u.

Single results of other studies
PhoQ, residues 284 288 289 292 302 303 SSLVEF
fold induction (PhoP, residues 12 14 15 18 19 SEGLL (Escherichia coli, UniProt P23836); Sort-seq, refers to: YFP reporter; E. coli; PhoQ-PhoP variant library, added: 10 µM Mg2+; relative to: high Mg2+ state, higher = stronger signaling): 7.5

Excerpt of the above (study 1):
PKTLKKLRFDIEG [P3T]: 0.391
